Experimental data from different studies.
Several values in a cell are separate wells, animals, samples, runs or records. ± marks the error that the study gave.

N#Cc1ccc2c(c1)[C@H]1CCCN(C(=O)c3ccc4[nH]cnc4c3)[C@H]1C2
maximum ACTH level (human; 20 mg, end of trial): 10.6 pmol/L

CCN1CCN(Cc2ccc(NC(=O)c3ccc(C)c(NC(=O)c4cncc(-c5cccs5)c4)c3)cc2C(F)(F)F)CC1
plasma concentration (LC-MS/MS; C57BL/6 mouse, plasma; intraperitoneal, 30 mg/kg single dose, 8 h): 136 ng/mL and 135 ng/mL and 72 ng/mL

CNC(=O)c1ccc(-c2cnc3ncc(Cc4ccc5ncccc5c4)n3n2)cc1F
Platelet count decreased dose reduction/interruption (Japanese patients; oral, 400 mg, any grade): 2%

COc1ccc2nc(-c3ccccn3)c(N(C)c3ccc(F)cc3)n2c1
CL/F (male CD-1 mouse, fasted, plasma; oral, 50 mg/kg, together with: 1-aminobenzotriazole 50 mg/kg): 944 mL/min/kg and 1170 mL/min/kg

O=C(O)[C@H]1O[C@@H](Oc2ccc(/C=C/c3cc(O)cc(O)c3)cc2)[C@H](O)[C@@H](O)[C@@H]1O
CSF concentration (human, cerebrospinal fluid; dose not given, mean): not detected

Cc1nn(C2CC2)c(=O)c2nn(C)c(Cc3ccc(C(F)(F)F)c(C#N)c3)c12
CLint,u (rat Sprague-Dawley male, blood; intravenous, 1 mg/kg): 13.8 mL/min/kg

NC[C@H](NC(=O)c1ccc(C#CC#Cc2ccccc2)cc1)C(=O)NO
logP (octanol/buffer; pH 11): 2.16

COc1ccc([C@@H](O)c2cc(-c3ncnc4cc(N5CCOCC5)ccc34)c(F)cc2Cl)nn1
gastrointestinal disorder TEAE (locally advanced rectal cancer patients; 50 mg, together with: capecitabine and radiotherapy): 100%

C[C@@H](N)C1CCN(S(=O)(=O)c2cccc3cnccc23)CC1
participants with limb abscess (healthy volunteers; 25 mg, fasted): 0%

O=C(COc1ccc(Cl)cc1)NC12CC(c3nnc([C@H]4C[C@@H](OC(F)(F)F)C4)o3)(C1)C2
treatment-emergent adverse events (refers to: Epistaxis; healthy humans, both sexes; oral, dose not given, single ascending dose, fasted; baseline: subjects): 5.6%

N=C(N)c1ccc2cc(C(=O)Nc3ccc4c(c3)C(c3ccccc3)=NCC4)ccc2c1
logP (octanol/buffer; pH 11, urokinase ligand set): 3.47

CN[C@H](CC(C)C)C(=O)N[C@H]1C(=O)N[C@@H](CC(N)=O)C(=O)N[C@H]2C(=O)N[C@H]3C(=O)N[C@H](C(=O)N[C@H](C(=O)O)c4cc(O)cc(O)c4-c4cc3ccc4O)[C@H](O)c3ccc(c(Cl)c3)Oc3cc2cc(c3O[C@@H]2O[C@H](CO)[C@@H](O)[C@H](O)[C@H]2O[C@H]2C[C@](C)(N)[C@H](O)[C@H](C)O2)Oc2ccc(cc2Cl)[C@H]1O
time offset of concentration profile (male C57BL/6J mouse, cortex; intracerebroventricular, 84 µg; baseline: intravenous 35 mg/kg): 15 min

CCOc1c([C@H](C)n2nc(C)c3c(N)ncnc32)cc(Cl)c(F)c1[C@@H]1CNC(=O)C1
ECG observations (refers to: QTcF change ≤30 ms; previously treated B-cell malignancy; oral, 20 mg once daily, baseline QTcF ≤450 ms; baseline: baseline): 95.8%

COCCCC/C(=N\OCCN)c1ccc(C(F)(F)F)cc1
inhibition (total metabolite formation, inhibitor; dog hepatocytes suspension; 1 µM, 90 min, together with: ropinirole 1 µM): 87%

CNCc1ccc(-c2[nH]c3cc(F)cc4c3c2CCNC4=O)cc1
decreased appetite incidence (patients; oral, 600 mg twice daily, grade 4): 0%

CCCCCCCCCCCOC(=O)CCCCCN(CCO)CCCCCCCC(=O)OC(CCCCCCCC)CCCCCCCC
zeta potential (pH 5.5, formulated): 3.34 mV

Cc1nc(C)c(-c2ccnc(N)n2)s1
logP (octanol/buffer, 40 mM buffer; pH 11): 1.59

CN[C@@H](C)C(=O)N[C@H]1CN(S(=O)(=O)c2cccc(S(=O)(=O)N3CC[C@H]4CC[C@@H](C(=O)NC(c5ccccc5)c5ccccc5)N4C(=O)[C@@H](NC(=O)[C@H](C)NC)C3)c2)CC[C@H]2CC[C@@H](C(=O)NC(c3ccccc3)c3ccccc3)N2C1=O
AUC(0-t) (LC-MS/MS; human, advanced solid tumours, plasma; intravenous, 4 mg weekly, day 1): 80.9 ± 36.6 ng·h/mL

FC(F)(F)c1ccc(CNc2ccc(Cc3c[nH]c4ncc(Cl)cc34)cn2)cn1
adverse event incidence (refers to: Pruritus; patients with advanced solid tumours; oral, dose not given, all grades, possibly related to drug): 13%

Cc1cc(NC(=O)c2cccc(NC(=O)/C=C/CN(C)C)c2)ccc1Nc1nccc(-c2cccnc2)n1
compound remaining (Wistar rat male, blood plasma; 1 µM, 2 h): 78% and 76.1%

Cc1ccc([C@@H]2O[C@H](CO)[C@@H](O)[C@H](O)[C@H]2O)cc1Cc1ccc(-c2ccc(F)cc2)s1
urinary sodium excretion change (Japanese type 2 diabetes patients; 100 mg, day 18, 24 h urine collection; baseline: baseline): -56.2 mEq

CCc1cc(C(=O)NC)c2nccc(N3CCc4c(cc(Cn5ccnc5)cc4-c4cn(C)nc4C(F)(F)F)C3=O)c2c1
serum TG level (Sprague Dawley rats; oral, 50 mg/kg once daily, 7 days): 1 ± 0.59 mmol/L

CC(C)Nc1nc2cc(Cl)c(Cl)cc2n1[C@H]1O[C@@H](CO)[C@H](O)[C@@H]1O
Vc/F (population PK model; human; oral, 70 kg body weight): 17.8 L

Cn1cc(-c2cn3nccc3c(-c3cnn([C@]4(CC#N)C[C@@H](C#N)C4)c3)n2)cn1
dose-normalised AUC(0-t) (healthy humans fasted, plasma; oral, 400 mg single dose, geometric mean): 6.9 ng·h/mL/mg

CCn1cnc2c(=O)[nH]c(N)nc21.NCCNCCN.[Pt+2]
logP (octanol/water): -1.59 ± 0.28

Cc1cc(Nc2ncnc3ccc(NC4=NC(C)(C)CO4)cc23)ccc1Oc1ccn2ncnc2c1
AUC(0-inf), mean (human, plasma; oral, 300 mg, day 1, single dose alone): 2260 ng·h/mL

Cc1nc(C(=O)N2CCC[C@H]2C(=O)N[C@@H](COC(C)(C)C)C(=O)N[C@@H](CC(C)C)C(=O)NC(C)(C)C(=O)N[C@@H](CC(C)C)C(=O)N[C@@H](CC(C)C)C(=O)NC(C)(C)C(=O)NC(C)(C)C(=O)NCCC(=O)NC2(CN(C)C)CCC2)co1
alpha-helix content (circular dichroism; phosphate buffer; pH 7.4, 20 °C): 38.7%

C[C@H](Oc1ccc(Br)cc1-c1ccon1)C(=O)O
accumulation ratio (AUC) (human, plasma; 600 mg once daily, day 10; baseline: day 1): 0.887

C=CC(=O)NC1CCN(c2ncc3ncnc(Nc4ccc(Oc5ccc6c(c5)ncn6C)c(C)c4)c3n2)CC1
dose-normalised Cmax (healthy male volunteers, plasma; oral, 60 mg, tablet): 16.6 pmol/L/µg

O=C(O)CCC(=O)O.[2H]C([2H])([2H])Oc1cc(C)c2[nH]ccc2c1CN1CC[C@@H](C2CC2)C[C@H]1c1ccc(C(=O)O)cc1
subjects with elevated AST TEAE (multiple ascending dose; healthy Chinese subjects; 50 mg twice daily): 0%

CN(C)CCCC1(c2ccc(F)cc2)OCc2cc(C#N)ccc21 (centres unmarked)
loss by adsorption (empty perfusion, no placenta; maternal circuit tubing; 5 µM, 360 min; baseline: initial amount): 42.7 ± 11.3%

CC(C)n1c(Nc2cccnc2)nc2cnc(Nc3ccc(N4CCN(C)CC4)cc3)nc21
decrease in AUC (human, male, plasma; oral, dose not given, together with: rifampin; baseline: without rifampin): ~30%

O=C(Nc1nc2cccc(-c3ccc(CN4CCS(=O)(=O)CC4)cc3)n2n1)C1CC1
treatment-emergent adverse events (refers to: constipation; human rheumatoid arthritis patients; oral, 200 mg once daily, 4 weeks, regardless of relatedness): 0%

O=S(=O)(O)Oc1cccc(O)c1O
CSF concentration (human, cerebrospinal fluid; concentration not given, median): 3.8 nM

COc1ccc2c(c1)CN(C(=O)CCN1CCC(Cc3ccccc3)CC1)CC[S@@+]2[O-]
fu (dog plasma; 100 ng/mL): 0.245

CCN1/C(=C/C(C)=O)Sc2ccc(F)cc21
concentration relative to peak (mouse, male, blood and brain; intraperitoneal, dose not given, up to 60 min; baseline: peak): < 10%

COc1cc([N+](=O)[O-])ccc1NC(=O)CN1CCOCC1
logP (octanol/buffer; pH 11, known kinase inactives set): 2

CC1(C)CCC(CN2CCN(c3ccc(C(=O)NS(=O)(=O)c4ccc(NCC5CCOCC5)c([N+](=O)[O-])c4)c(Oc4cnc5[nH]ccc5c4)c3)CC2)=C(c2ccc(Cl)cc2)C1
absolute neutrophil count (human; 200 mg/day): 1900 cells/µL

CCn1c(=O)c(-c2cc(NC(=O)Nc3ccccc3)c(F)cc2Br)cc2cnc(NC)cc21
participants with drug-related TEAE (refers to: gastrointestinal disorders; human, moderate hepatic impairment; oral, 50 mg single dose): 0%

CC(C)(C(=O)N1CCOc2c(C#N)cncc2C1)C(F)F
subjects with investigations TEAE (human, both sexes; oral, 40 mg single dose): 0%

CC[N+]([O-])(CC)CCNC(=O)c1c(C)[nH]c(/C=C2\C(=O)Nc3ccc(F)cc32)c1C
serum concentration/dose ratio (human, serum; 37.5 mg maintenance, median): 0.011

A few entries again:
CCn1cnc2c(=O)[nH]c(N)nc21.NCCNCCN.[Pt+2]
logP (octanol/water): -1.59 ± 0.28

Cc1cc(Nc2ncnc3ccc(NC4=NC(C)(C)CO4)cc23)ccc1Oc1ccn2ncnc2c1
AUC(0-inf), mean (human, plasma; oral, 300 mg, day 1, single dose alone): 2260 ng·h/mL

Cc1nc(C(=O)N2CCC[C@H]2C(=O)N[C@@H](COC(C)(C)C)C(=O)N[C@@H](CC(C)C)C(=O)NC(C)(C)C(=O)N[C@@H](CC(C)C)C(=O)N[C@@H](CC(C)C)C(=O)NC(C)(C)C(=O)NC(C)(C)C(=O)NCCC(=O)NC2(CN(C)C)CCC2)co1
alpha-helix content (circular dichroism; phosphate buffer; pH 7.4, 20 °C): 38.7%

C[C@H](Oc1ccc(Br)cc1-c1ccon1)C(=O)O
accumulation ratio (AUC) (human, plasma; 600 mg once daily, day 10; baseline: day 1): 0.887

C=CC(=O)NC1CCN(c2ncc3ncnc(Nc4ccc(Oc5ccc6c(c5)ncn6C)c(C)c4)c3n2)CC1
dose-normalised Cmax (healthy male volunteers, plasma; oral, 60 mg, tablet): 16.6 pmol/L/µg

O=C(O)CCC(=O)O.[2H]C([2H])([2H])Oc1cc(C)c2[nH]ccc2c1CN1CC[C@@H](C2CC2)C[C@H]1c1ccc(C(=O)O)cc1
subjects with elevated AST TEAE (multiple ascending dose; healthy Chinese subjects; 50 mg twice daily): 0%
